Measurements from different studies.
Each line is one published result; not all experiments were run side by side. Values joined by “and” are separate records of one study, mostly repeats; a detail may differ. ± gives the spread as reported.
Oprm1: Mu-type opioid receptor (Oprm1, Rattus norvegicus, UniProt P33535)
Sequence of UniProt P33535 (whole entry, looked up): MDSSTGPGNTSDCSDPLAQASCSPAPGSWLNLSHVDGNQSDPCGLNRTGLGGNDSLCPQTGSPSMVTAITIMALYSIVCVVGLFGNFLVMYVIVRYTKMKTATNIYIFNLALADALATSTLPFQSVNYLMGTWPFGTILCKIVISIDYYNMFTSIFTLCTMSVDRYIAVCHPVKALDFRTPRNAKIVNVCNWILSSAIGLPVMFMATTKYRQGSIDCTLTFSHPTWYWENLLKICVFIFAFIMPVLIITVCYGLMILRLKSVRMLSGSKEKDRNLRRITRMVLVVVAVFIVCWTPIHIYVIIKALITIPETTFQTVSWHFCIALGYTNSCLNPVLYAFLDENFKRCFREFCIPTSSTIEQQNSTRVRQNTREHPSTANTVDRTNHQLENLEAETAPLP
KEAP1: Kelch-like ECH-associated protein 1 (KEAP1, Homo sapiens, UniProt Q14145)
Sequence of UniProt Q14145 (whole entry, looked up): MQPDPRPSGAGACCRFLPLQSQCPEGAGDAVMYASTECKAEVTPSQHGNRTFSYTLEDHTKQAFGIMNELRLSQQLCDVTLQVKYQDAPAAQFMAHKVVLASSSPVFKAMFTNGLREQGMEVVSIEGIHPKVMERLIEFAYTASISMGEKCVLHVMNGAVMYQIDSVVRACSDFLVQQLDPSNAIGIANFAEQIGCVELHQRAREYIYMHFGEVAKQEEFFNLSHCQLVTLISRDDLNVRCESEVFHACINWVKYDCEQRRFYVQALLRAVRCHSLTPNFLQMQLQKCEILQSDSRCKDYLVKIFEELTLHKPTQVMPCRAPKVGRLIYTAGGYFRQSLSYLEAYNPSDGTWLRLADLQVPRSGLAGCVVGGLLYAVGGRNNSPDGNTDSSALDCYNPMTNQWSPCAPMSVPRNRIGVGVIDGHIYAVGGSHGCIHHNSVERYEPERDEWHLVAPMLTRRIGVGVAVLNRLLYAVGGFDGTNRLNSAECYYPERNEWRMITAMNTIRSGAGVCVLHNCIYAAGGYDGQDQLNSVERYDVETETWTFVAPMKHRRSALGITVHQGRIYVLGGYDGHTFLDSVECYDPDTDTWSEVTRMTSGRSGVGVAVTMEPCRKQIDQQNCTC
Uncharacterized hydrolase SAUSA300_2518: Uncharacterized hydrolase SAUSA300_2518 (Staphylococcus aureus, UniProt Q2FDS6)
Sequence of UniProt Q2FDS6 (whole entry, looked up): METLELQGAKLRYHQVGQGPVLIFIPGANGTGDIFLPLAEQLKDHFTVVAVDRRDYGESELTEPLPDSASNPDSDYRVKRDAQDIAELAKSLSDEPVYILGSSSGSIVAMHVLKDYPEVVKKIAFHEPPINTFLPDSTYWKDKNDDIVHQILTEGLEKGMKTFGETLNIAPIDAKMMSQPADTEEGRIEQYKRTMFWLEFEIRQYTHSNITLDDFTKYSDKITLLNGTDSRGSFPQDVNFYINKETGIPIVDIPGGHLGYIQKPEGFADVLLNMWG
lasR: Transcriptional activator protein LasR (lasR, Pseudomonas aeruginosa, UniProt P25084)
Sequence of UniProt P25084 (whole entry, looked up): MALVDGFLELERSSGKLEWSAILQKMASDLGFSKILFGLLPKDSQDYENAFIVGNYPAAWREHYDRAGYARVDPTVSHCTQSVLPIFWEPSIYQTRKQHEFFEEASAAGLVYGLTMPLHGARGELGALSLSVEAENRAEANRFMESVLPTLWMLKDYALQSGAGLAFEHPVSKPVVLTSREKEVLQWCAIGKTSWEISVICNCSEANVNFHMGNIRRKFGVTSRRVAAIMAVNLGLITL
sdiA: Regulatory protein SdiA (sdiA, Escherichia coli, UniProt P07026)
Sequence of UniProt Q007T0 (whole entry, looked up): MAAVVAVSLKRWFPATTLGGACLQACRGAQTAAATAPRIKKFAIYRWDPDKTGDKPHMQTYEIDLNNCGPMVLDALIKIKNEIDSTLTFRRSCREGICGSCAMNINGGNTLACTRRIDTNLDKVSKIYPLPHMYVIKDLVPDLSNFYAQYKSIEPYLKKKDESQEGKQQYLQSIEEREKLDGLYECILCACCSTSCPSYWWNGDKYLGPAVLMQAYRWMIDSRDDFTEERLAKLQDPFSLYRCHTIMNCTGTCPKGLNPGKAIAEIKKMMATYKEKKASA
Sequence of UniProt D0VWV4 (whole entry, looked up): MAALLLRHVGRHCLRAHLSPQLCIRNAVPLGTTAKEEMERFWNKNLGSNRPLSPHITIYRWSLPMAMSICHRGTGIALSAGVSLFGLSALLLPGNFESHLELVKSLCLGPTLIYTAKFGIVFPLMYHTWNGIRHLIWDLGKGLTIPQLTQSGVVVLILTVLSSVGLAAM
Sequence of UniProt A5GZW8 (whole entry, looked up): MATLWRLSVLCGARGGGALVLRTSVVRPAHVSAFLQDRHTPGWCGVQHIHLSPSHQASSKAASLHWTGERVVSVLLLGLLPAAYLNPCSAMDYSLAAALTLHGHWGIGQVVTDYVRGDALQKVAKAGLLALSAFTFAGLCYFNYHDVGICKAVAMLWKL
Sequence of UniProt Q9UM07 (whole entry, looked up): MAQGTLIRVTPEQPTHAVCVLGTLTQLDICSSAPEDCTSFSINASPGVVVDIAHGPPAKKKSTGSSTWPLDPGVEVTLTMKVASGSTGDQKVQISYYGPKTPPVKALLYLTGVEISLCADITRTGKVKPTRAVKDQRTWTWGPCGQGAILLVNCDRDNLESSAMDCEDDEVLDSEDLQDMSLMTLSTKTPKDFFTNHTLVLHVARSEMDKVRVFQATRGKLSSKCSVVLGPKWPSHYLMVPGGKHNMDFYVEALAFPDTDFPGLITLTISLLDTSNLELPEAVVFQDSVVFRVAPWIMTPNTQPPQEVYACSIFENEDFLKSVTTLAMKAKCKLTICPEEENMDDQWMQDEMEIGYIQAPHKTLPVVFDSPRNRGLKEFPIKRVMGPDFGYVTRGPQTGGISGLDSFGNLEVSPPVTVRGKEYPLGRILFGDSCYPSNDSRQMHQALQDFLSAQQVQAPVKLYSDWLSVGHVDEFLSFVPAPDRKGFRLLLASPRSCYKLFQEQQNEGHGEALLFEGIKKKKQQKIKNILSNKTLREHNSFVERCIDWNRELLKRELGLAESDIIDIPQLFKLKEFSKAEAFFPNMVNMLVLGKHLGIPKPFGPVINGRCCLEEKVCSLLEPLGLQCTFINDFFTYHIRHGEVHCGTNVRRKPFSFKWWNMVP
Sequence of UniProt P10398 (whole entry, looked up): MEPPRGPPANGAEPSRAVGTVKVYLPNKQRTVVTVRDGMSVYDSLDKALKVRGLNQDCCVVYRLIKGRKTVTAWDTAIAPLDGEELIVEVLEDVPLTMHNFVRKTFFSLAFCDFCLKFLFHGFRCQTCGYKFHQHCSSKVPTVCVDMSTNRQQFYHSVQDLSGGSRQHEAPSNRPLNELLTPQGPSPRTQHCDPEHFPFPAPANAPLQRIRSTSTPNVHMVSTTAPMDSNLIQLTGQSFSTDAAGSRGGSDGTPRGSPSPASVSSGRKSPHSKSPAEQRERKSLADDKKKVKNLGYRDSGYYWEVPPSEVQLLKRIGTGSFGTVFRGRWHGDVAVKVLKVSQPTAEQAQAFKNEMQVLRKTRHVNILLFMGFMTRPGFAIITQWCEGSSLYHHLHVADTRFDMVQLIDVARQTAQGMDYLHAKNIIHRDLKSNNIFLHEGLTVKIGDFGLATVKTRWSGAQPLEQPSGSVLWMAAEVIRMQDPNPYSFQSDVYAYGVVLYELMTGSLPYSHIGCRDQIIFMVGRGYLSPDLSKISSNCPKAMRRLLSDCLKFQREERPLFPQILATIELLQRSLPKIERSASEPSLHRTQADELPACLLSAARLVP
Sequence of UniProt P07026 (whole entry, looked up): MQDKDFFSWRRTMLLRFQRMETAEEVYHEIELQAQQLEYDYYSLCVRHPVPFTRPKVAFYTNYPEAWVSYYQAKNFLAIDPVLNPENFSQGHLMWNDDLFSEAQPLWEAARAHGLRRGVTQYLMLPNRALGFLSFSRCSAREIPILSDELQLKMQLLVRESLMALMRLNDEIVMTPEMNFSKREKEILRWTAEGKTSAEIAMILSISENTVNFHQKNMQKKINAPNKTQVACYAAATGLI
Sequence of UniProt P00772 (whole entry, looked up): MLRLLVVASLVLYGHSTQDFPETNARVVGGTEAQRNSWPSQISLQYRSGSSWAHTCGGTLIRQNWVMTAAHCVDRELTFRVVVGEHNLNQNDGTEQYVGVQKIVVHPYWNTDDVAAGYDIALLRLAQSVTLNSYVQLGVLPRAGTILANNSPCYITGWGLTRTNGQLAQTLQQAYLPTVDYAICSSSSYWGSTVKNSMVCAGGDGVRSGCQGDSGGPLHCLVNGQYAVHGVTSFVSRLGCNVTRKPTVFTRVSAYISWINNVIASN
Sequence of UniProt P37288 (whole entry, looked up): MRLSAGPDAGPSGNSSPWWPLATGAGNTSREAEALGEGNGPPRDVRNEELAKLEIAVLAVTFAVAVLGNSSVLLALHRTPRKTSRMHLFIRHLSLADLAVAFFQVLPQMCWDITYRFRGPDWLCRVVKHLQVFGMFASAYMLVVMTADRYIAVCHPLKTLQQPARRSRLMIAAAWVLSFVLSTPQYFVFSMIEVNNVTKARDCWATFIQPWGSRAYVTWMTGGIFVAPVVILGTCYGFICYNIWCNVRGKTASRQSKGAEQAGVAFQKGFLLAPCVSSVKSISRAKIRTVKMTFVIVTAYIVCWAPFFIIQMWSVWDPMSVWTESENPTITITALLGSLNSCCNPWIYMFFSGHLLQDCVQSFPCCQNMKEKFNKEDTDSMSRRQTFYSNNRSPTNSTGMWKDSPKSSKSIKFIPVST
Sequence of UniProt P0A988 (whole entry, unmodified, looked up): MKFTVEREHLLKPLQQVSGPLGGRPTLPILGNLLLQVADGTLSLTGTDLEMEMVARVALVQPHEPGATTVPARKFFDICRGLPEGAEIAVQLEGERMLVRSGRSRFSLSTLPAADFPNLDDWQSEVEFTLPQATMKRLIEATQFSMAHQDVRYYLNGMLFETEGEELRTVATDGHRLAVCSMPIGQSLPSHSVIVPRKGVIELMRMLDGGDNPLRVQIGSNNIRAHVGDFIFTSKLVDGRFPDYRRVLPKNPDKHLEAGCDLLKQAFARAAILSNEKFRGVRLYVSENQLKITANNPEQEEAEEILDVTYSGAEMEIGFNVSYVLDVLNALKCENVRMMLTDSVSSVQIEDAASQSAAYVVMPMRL

[CH3][Ti+2][O]C(=O)c1ccc([S][Au][PH](c2ccccc2)(c2ccccc2)c2ccccc2)cc1.c1cc[cH-]c1.c1cc[cH-]c1 gave a remaining activity of 98.8% and 98.6% (ARAF (Homo sapiens, UniProt P10398); kinase activity, HotSpot kinase; 1 µM, added: ATP 10 µM).
With C/C(=N\OCCCN1CCCCC1)c1ccc(C(F)(F)F)cc1 the activation was -0.38% (AVPR1A (Homo sapiens, UniProt P37288); agonist, IP-One; 10 µM).
CS(C)(=O)=Nc1ccc(-c2ccc(-c3nc4cc(O[C@@H]5CO[C@H]6[C@@H]5OC[C@H]6O)[nH]c4cc3F)cc2)cc1 has an inhibition of 14% (CSNK2A1 (Homo sapiens, UniProt P68400); enzyme activity, inhibitor; 10 µM).
CC(C)CC(O)(CC(C)C)c1cn(C(=O)N2CCCC2)nn1 has an activity ratio of 1.25 (Lysosomal Pro-X carboxypeptidase (Mus musculus, UniProt Q7TMR0); enzyme activity, inhibitor, competitive ABPP-SILAC, refers to: Prcp; mouse T-cells; concentration not given, 4 h, treated in situ; reference: DMSO).
For Cc1ccc(NC(=O)CCc2cccc(NC3=CC(=O)N(C4CCC(=O)NC4=O)C3=O)c2)cc1Cl (stereo not shown), “log2 fold change” read -1.84 (CRBN/Zinc finger protein Aiolos (Homo sapiens, UniProt Q96SW2+Q9UKT9); degrader, quantitative proteomics, refers to: protein abundance; Jurkat; 1 µM, 4 h; reference: DMSO).
COc1ccccc1-c1n[nH]c2nc(N[C@H]3CC[C@H](NS(=O)(=O)CC(C)C)CC3)ncc12 has a Hill slope of 1.73 (cyclin 9 (Leishmania donovani, UniProt A0A2D1QVA3); affinity bead binding, bead competition pull-down; Leishmania donovani extract; analogue affinity beads).
For O=C(O)c1cccc(CP(=O)(O)O)n1, the koff was 0.0015 ± 0.000167 s⁻¹ (Metallo-beta-lactamase type 2 (Serratia marcescens, UniProt P52699); enzyme activity, inhibitor; added: nitrocefin).
With CN(C)[C@H]1C[C@@]23CC[C@@]4(O2)C(=CC[C@]2(C)[C@@H](c5ccc6ccncc6c5)CC[C@H]24)C=C3[C@@H](O)[C@@H]1O the inhibition was -3.1% (MAP3K6 (Homo sapiens, UniProt O95382); ATP probe labelling, inhibitor, KiNativ profiling; 0.1 µM).
For Cc1cc(O)cc(C)c1C[C@H](N)C(=O)N[C@H](CCCNC(=N)N)C(=O)N[C@@H](Cc1ccccc1)C(=O)N[C@@H](CCCCN)C(=O)NCCCCCCNC(=O)[C@H](Cc1ccccc1)NC(=O)[C@H](CC1CCCCC1)NC[C@@H]1Cc2ccccc2CN1C(=O)[C@@H](N)Cc1ccc(O)cc1, the selectivity ratio was 5.31 (Oprm1; binding; rat brain membranes; added: [3H]DAMGO; reference: Ki mu over Ki delta).
CC(C)[C@@H]1NC(=O)[C@H](CC(N)=O)NC(=O)CNC(=O)[C@H](CC(N)=O)NC(=O)[C@H](C)NC(=O)[C@H](CC(=O)O)NC(=O)[C@H]([C@@H](C)O)NC(=O)[C@H](CCC(=O)O)NC(=O)CNC(=O)[C@H]([C@@H](C)O)NC(=O)[C@H](CCC(=O)O)NC(=O)[C@H](CCC(=O)O)NC(=O)[C@H](CC(=O)O)NC1=O gave a fluorescence polarization of 0.0962 a.u. and 0.216 a.u. (KEAP1; Keap1-Nrf2 binding, inhibitor, competitive FP; 6.25 µM, 30 min, added: Nrf2 peptide probe; lower = stronger inhibition).
CN1CCCN(C(=O)c2ccc(S(=O)(=O)F)cc2)c2ccccc21 gave a remaining activity of 113% (Uncharacterized hydrolase SAUSA300_2518; enzyme activity, inhibitor, fluorogenic substrate; 0.1 µM).
CC(C)C[C@@H]1NC(=O)[C@H](C(C)C)NC(=O)[C@H](CCC(=O)O)NC(=O)CNC(=O)[C@H]([C@@H](C)O)NC(=O)[C@H](CCC(=O)O)NC(=O)[C@H](CCC(=O)O)NC(=O)[C@H](CC(=O)O)NC(=O)[C@H](C(C)C)NC(=O)[C@H]([C@@H](C)O)NC(=O)CNC(=O)[C@H](CC(=O)O)NC(=O)[C@@H]2CCCN2C1=O has a fluorescence polarization of 0.871 a.u. and 1.08 a.u. (KEAP1; Keap1-Nrf2 binding, inhibitor, competitive FP; 0.0244 µM, 30 min, added: Nrf2 peptide probe; lower = stronger inhibition).
The reaction velocity of CON(C(=O)c1cn(C)nc1C(F)F)C(C)Cc1c(Cl)cc(Cl)cc1Cl (stereo not shown) is reported as 0.0172 µM/s and 0.0164 µM/s and 0.0162 µM/s (SDHD/SDHC/SDHB (Sus scrofa, UniProt A5GZW8+D0VWV4+Q007T0); enzyme activity, inhibitor, DCIP reduction; pig; 0.1 µM, added: DCIP 80 µM).
For CCCCCCCCCC(=O)CC(=O)NC1CCCCC1=O (stereo not shown), the agonist activity was 89% (lasR; reporter gene, agonist; Escherichia coli JLD271; 10 µM, pSC11 and pJN105L plasmids; reference: OdDHL at same concentration).
C=CC(=O)NC[C@H](NC(=O)[C@H](CC1CCCCC1)NC(=O)[C@H](CCC(N)=O)NC(C)=O)C(=O)N[C@@H](CC(C)C)C(=O)N[C@@H](Cc1ccccc1)C(=O)O gave a ΔG of -9.3 kcal/mol (Beta sliding clamp (Escherichia coli, UniProt P0A988); binding, isothermal titration calorimetry; pH 7.4, 22 °C).
C#CCOc1ccc(-c2nc(C)c(C(=O)OCC)s2)cc1/C=N/NC(=O)C=C has a labelling concentration of 0.1 to 0.5 µM (Omega-amidase NIT2 (NIT2, Homo sapiens, UniProt Q9NQR4); cysteine labelling, gel-based live-cell labelling; HEK-293T; strong ligand-dependent labelling).
For CCCC[C@H]1CNCCN1C[C@@H]1CCCN1C[C@@H](Cc1ccc2ccccc2c1)N1CCN(CCc2ccc(Cl)c(Cl)c2)[C@H](Cc2ccc(O)cc2)C1, the remaining binding was 97.2 ± 3.2% (Oprm1; radioligand binding; rat brain membranes; 500 nM, pH 7.5, 25 °C, added: 0.87 nM [3H]DAMGO).
O=C(CCCc1ccccc1)NC1CCOC1=O (stereo not shown) gave a potency ratio of 180 (lasR; reporter gene, antagonist; reference: IC50 PAO-JP2 over E. coli JLD271).
With CC[C@@H](C)[C@@H]1CN([C@H](Cc2ccc3ccccc3c2)CN2CCC[C@H]2CN2CCNC[C@@H]2CO)CCN1CCC12CC3CC(CC(C3)C1)C2 the remaining binding was 108 ± 7.75% (Oprm1; radioligand binding; rat brain membranes; 500 nM, pH 7.5, 25 °C, added: 0.87 nM [3H]DAMGO).
For COc1cc2c(cc1S(=O)(=O)F)C(=O)NCCC2, the remaining activity was 92.5% and 93.2% and 92.6% (Uncharacterized hydrolase SAUSA300_2518; enzyme activity, inhibitor, fluorogenic substrate; 0.1 µM).
For CC(C)[C@H]1NC(=O)C[C@H]2/C=C/CCSSC[C@@H](NC1=O)C(=O)N[C@H](Cc1cccc3ccccc13)C(=O)NCC(=O)O2, the inhibition was 0.9% (FLT3 (Homo sapiens, UniProt P36888); enzyme activity, inhibitor; 10 µM).
The Emax of CSc1cccc(CC(=O)N[C@H]2CCOC2=O)c1 is reported as 102% (sdiA).
For N[C@H](C(=O)N1CCCC1)C1CCN(c2nccc3c(-c4ncc(Cl)cc4Cl)cccc23)CC1, the kcat was 0.699 s⁻¹ and 0.667 s⁻¹ (PADI4 (Homo sapiens, UniProt Q9UM07); enzyme activity; 1.536 µM, high-affinity site, added: Ca2+ 1.5 mM).
For O=C(CC(=O)N[C@H]1CCOC1=O)Cc1ccccc1, the potency ratio was 26 (lasR; reporter gene, antagonist; reference: IC50 PAO-JP2 over E. coli JLD271).
C#CCCCCOc1ccc2c(c1)CCCN2C(=O)CCl gave a reactivity ratio of 1.53 (TXNRD1 (Homo sapiens, UniProt Q16881); mass spectrometry profiling; H460 cell lysate; 100 µM over 10 µM, UniProt Q16881; reference: high over low concentration).
With CC(C)Oc1ccc(B(O)O)c(F)n1 the selectivity ratio was 637 (CELA1 (Sus scrofa, UniProt P00772); pNA substrate hydrolysis; reference: Ki protease over Ki AmpC).
O=C1NC(=O)c2c1c1cc(F)c[n+]3c1c1c2c2cc(O)ccc2[n]1[Ru-4]312([N]=C=S)[S+]3CC[S+]1CC[S+]2CC3 (stereo not shown) has a remaining activity of 86% (FGFR4 (Homo sapiens, UniProt P22455); enzyme activity; 100 nM, human enzyme, added: 10 µM ATP; reference: untreated).
CN(C)[C@H](CNC(=O)/C=C/c1cccc2ccccc12)Cc1ccc(O)cc1 has an Emax of 80 ± 10% (Mu-type opioid receptor, with Gi2 (OPRM1, Homo sapiens, UniProt P35372); receptor activation, agonist).
For CCCCCCCCCCCCn1nnc(CC(=O)O)n1, the agonist activity was 0% (lasR; reporter gene, agonist; Pseudomonas aeruginosa PAO-JP2; 100 µM, plasI-LVAgfp reporter; reference: OdDHL at same concentration).
O=C(COc1ccc(I)cc1)N[C@H]1CCOC1=O gave an Emax of 106% (sdiA).
C[C@H](N)C(=O)N[C@@H](CCCNC(=N)N)C(=O)N[C@H](C(=O)N[C@@H](CCCC[N+](C)(C)C)C(=O)N[C@@H](CCC(N)=O)C(=O)N[C@H](C(=O)N[C@@H](C)C(=O)N[C@@H](CCCNC(N)=O)C(=O)N[C@@H](CCCCN)C(=O)N[C@@H](CO)C(=O)N[C@H](C(=O)NCC(=O)NCC(=O)N[C@@H](CCCCN)C(=O)N[C@@H](C)C(=O)N[C@@H](Cc1ccc(O)cc1)C(N)=O)[C@@H](C)O)[C@@H](C)O)[C@@H](C)O: “preference over Kme3 peptide” 1.7 fold (SGF29, TTD (Homo sapiens, UniProt Q96ES7); binding, ITC; reference: Kme3 peptide KD over compound KD).

For quick reference, copied from above:
For O=C(CC(=O)N[C@H]1CCOC1=O)Cc1ccccc1, the potency ratio was 26 (lasR; reporter gene, antagonist; reference: IC50 PAO-JP2 over E. coli JLD271).
C#CCOc1ccc(-c2nc(C)c(C(=O)OCC)s2)cc1/C=N/NC(=O)C=C has a labelling concentration of 0.1 to 0.5 µM (Omega-amidase NIT2 (NIT2, Homo sapiens, UniProt Q9NQR4); cysteine labelling, gel-based live-cell labelling; HEK-293T; strong ligand-dependent labelling).
With CC[C@@H](C)[C@@H]1CN([C@H](Cc2ccc3ccccc3c2)CN2CCC[C@H]2CN2CCNC[C@@H]2CO)CCN1CCC12CC3CC(CC(C3)C1)C2 the remaining binding was 108 ± 7.75% (Oprm1; radioligand binding; rat brain membranes; 500 nM, pH 7.5, 25 °C, added: 0.87 nM [3H]DAMGO).
CC(C)[C@@H]1NC(=O)[C@H](CC(N)=O)NC(=O)CNC(=O)[C@H](CC(N)=O)NC(=O)[C@H](C)NC(=O)[C@H](CC(=O)O)NC(=O)[C@H]([C@@H](C)O)NC(=O)[C@H](CCC(=O)O)NC(=O)CNC(=O)[C@H]([C@@H](C)O)NC(=O)[C@H](CCC(=O)O)NC(=O)[C@H](CCC(=O)O)NC(=O)[C@H](CC(=O)O)NC1=O gave a fluorescence polarization of 0.0962 a.u. and 0.216 a.u. (KEAP1; Keap1-Nrf2 binding, inhibitor, competitive FP; 6.25 µM, 30 min, added: Nrf2 peptide probe; lower = stronger inhibition).
